Published values pooled from the literature.
Compare with care: the assays were run in different laboratories. Several values in a cell are separate wells, animals, samples, runs or records. ± marks the error that the study gave.
CASP7: Caspase-7 (CASP7, Homo sapiens, UniProt P55210)

| SMILES | target | test | test system | setting | how to read | quantity | result |
| --- | --- | --- | --- | --- | --- | --- | --- |
| O=C(Nc1cccc(CN2CCc3nc[nH]c3C2)c1)c1cc(-c2ccccc2)n(-c2ccccc2)n1 | Genome polyprotein, NS2B-NS3 protease (dengue virus type 2, UniProt P29990) | enzyme activity, fluorogenic AMC substrate | – | 50 µM | – | inhibition | 64% |
| C[N+]1(C)CCSC1 | Chrnd/Chrna1/Chrne (Mus musculus, UniProt P02716+P04756+P20782, G173K/S470W) | ligand binding, agonist, single-channel kinetics | – | chain K | reference: wild type over mutant | affinity ratio | 2.5 |
| CCOC(=O)C(CC)(CCCSCCOCCOCCOCCOCCN)NC(=O)c1ccc(C2CC2)c(Cc2ccc(F)cc2)n1 (centres unmarked) | CNR2 (Homo sapiens, UniProt P34972) | radioligand binding | – | – | reference: CB1 over CB2 (human) | Ki ratio | 63 |
| O=C(O)Cc1cc2c(cc1C(=O)c1ccccc1I)OCO2 | Gria2 (Rattus norvegicus, UniProt P19491) | whole-cell patch clamp | HEK-293T | concentration not given, with: glutamate | – | desensitization time constant | 1.7 ± 0.1 ms |
| CC[C@H](C)[C@@H]1NC(=O)[C@H](Cc2ccccc2)NC(=O)[C@H](CCC(=O)O)NC(=O)[C@H](CCCNC(=N)N)NC(=O)CNC(=O)[C@@H](NC(=O)[C@H](CC(C)C)NC(=O)[C@H](CCCNC(=N)N)NC(=O)[C@@H](NC(=O)CNC(=O)[C@H](Cc2ccc(O)cc2)NC(=O)[C@@H]2CCCN2C(=O)[C@H](C)NC(=O)[C@H](C)NC(=O)[C@@H](N)CCCNC(=N)N)C(C)C)CSSC[C@@H]2NC(=O)[C@@H](NC(=O)[C@H](CO)NC(=O)[C@H](CO)NC(=O)[C@H](CO)NC(=O)[C@H](CC(C)C)NC(=O)CNC(=O)[C@H](C)NC(=O)[C@H](CC(C)C)NC(=O)[C@@H](NC(=O)[C@@H](N)CC(=O)O)C(C)C)CSSC[C@H](NC(=O)CNC(=O)[C@H](Cc3c[nH]c4ccccc34)NC(=O)[C@H](CCCCN)NC2=O)C(=O)N[C@@H](CO)C(=O)N[C@@H](CCCCN)C(=O)N[C@@H](CO)C(=O)N[C@@H](CCC(=O)O)C(=O)N[C@@H]([C@@H](C)CC)C(=O)N[C@@H](CO)C(=O)N[C@@H](CO)C(=O)N[C@@H](CC(C)C)C(=O)N[C@H](C(=O)O)CSSC[C@@H](C(=O)NCC(=O)NCC(=O)N[C@@H](CO)C(=O)N[C@@H](CCCNC(=N)N)C(=O)N[C@@H](Cc2c[nH]c3ccccc23)C(=O)O)NC(=O)[C@H]([C@@H](C)O)NC(=O)[C@H](Cc2ccccc2)NC(=O)[C@H]([C@@H](C)CC)NC(=O)[C@H](C(C)C)NC(=O)[C@H](C)NC(=O)[C@H](CCCNC(=N)N)NC1=O | RXFP4 (Homo sapiens, UniProt Q8TDU9, Q287A) | – | – | Q287A mutant | reference: wild type | Δemax | -59.5% and -72.1% and -65.7% |
| CC1CCc2nc(-c3c[nH]nc3-c3ccccc3)ccc2N1 (centres unmarked) | human kinase panel | binding, KINOMEscan | – | 10000 nM, %Ctrl below 35 | – | number of kinases hit | 1 |
| CC(=O)N[C@@H](CO)C(=O)N[C@H](C(=O)N[C@@H](CCC(=O)O)C(=O)N[C@H](C(=O)N[C@@H](CC(=O)O)C(=O)COC(=O)c1c(C)cccc1C)C(C)C)C(C)(C)C | CASP7 | enzyme activity, inhibitor | – | – | – | kinact/KI | 47000 M⁻¹ s⁻¹ |
| CC(=O)N[C@H]1C(n2cc(-c3ccc(F)cc3F)nn2)O[C@H](COCc2ccccc2)[C@H](OCc2ccccc2)[C@@H]1OCc1ccccc1 (some centres unmarked) | MDM2 (Homo sapiens, UniProt Q00987) | thermal stability, DSF | – | 30 µM | – | ΔTm | -0.05 °C |
| C=CC(=O)N1CC2(CCN(c3nc(OC4CCN(CCCOC)CC4)nc4c(OCC(F)(F)F)c(-c5c(C)ccc6[nH]ncc56)c(C5CC5)cc34)CC2)C1 | GTPase KRas, GDP-bound (KRAS, Homo sapiens, UniProt P01116, G12D) | binding, surface plasmon resonance | – | – | – | association rate constant | 13700 ± 390 M⁻¹ s⁻¹ |
| CCCCCC=CC=C1C(=O)C=CC1CC=CCCCC(=O)O (centres unmarked) | Fatty acid synthase (FASN, Homo sapiens, UniProt P49327) | competitive isoTOP-ABPP | Ramos soluble proteome | 100 µM, with: iodoacetamide probe | reference: DMSO over compound-treated, higher = stronger cysteine blockade | isoTOP-ABPP competition ratio | 1.6 |
| N#CN1CC[C@H](C(=O)Nc2nc3c(s2)CN(C(=O)Cn2cc(CNC(=O)CCCC[C@@H]4SC[C@@H]5NC(=O)N[C@@H]54)nn2)CC3)C1 | UCHL1 (Homo sapiens, UniProt P09936) | probe binding, affinity probe, neutravidin pull-down LC-MS/MS | HEK293T, cell lysate | 5 µM, 1 h, mean of three replicates, unit not given | higher = more pulled down | iBAQ abundance | 2.21e+09 |
| CC(=O)N[C@@H](Cc1ccc(I)cc1)C(=O)N[C@@H](CCC(=O)O)C(=O)N[C@H](C(=O)N[C@@H](CC(=O)O)C(=O)COC(=O)c1c(C)cccc1C)[C@@H](C)O | CASP7 | enzyme activity, inhibitor | – | – | – | kinact/KI | 51400 M⁻¹ s⁻¹ |
| O=C1c2sc(-c3ccc(N4CCC(F)C4)nc3F)nc2CCN1c1cccnc1 (centres unmarked) | TAR DNA-binding protein 43, aggregated (TARDBP, Homo sapiens, UniProt Q13148) | radioligand binding | control brain sarkosyl-insoluble extract | 18.97 nM | – | specific binding | 0.04 nM |
| Clc1ccc(NN=C(c2ccccc2)c2ccccn2)nc1 | KDM4A (Homo sapiens, UniProt O75164) | demethylase activity, inhibitor, 1H NMR, measured: H3K9me3 peptide | – | double exponential fit component | – | rate constant | 0.043 min⁻¹ |

For quick reference, copied from above:
| SMILES | target | test | test system | setting | how to read | quantity | result |
| --- | --- | --- | --- | --- | --- | --- | --- |
| O=C(Nc1cccc(CN2CCc3nc[nH]c3C2)c1)c1cc(-c2ccccc2)n(-c2ccccc2)n1 | Genome polyprotein, NS2B-NS3 protease (dengue virus type 2, UniProt P29990) | enzyme activity, fluorogenic AMC substrate | – | 50 µM | – | inhibition | 64% |
